Experimental data from different studies.
B1: enzyme (Sargassum horneri, UniProt A0A097IUG6); chain SPMAVASPSGFQKAMKTTLSSLGIDKATGITKPTTIYRNLPYPEVFKHEEQNKEGEVTKNGTFCVSTGQFTGRSPKDKYFVKQAPSDGKLDWGKINKGVASEVYKNIYDKAVKHYNTNVDKMYVFDGYCGTSPKSRKNVRIITELAWQHHFAKNMFIRPETEEEVANFVPDFTIINACKIVNEDYKELGLNSEVAVVFNVEESKAVITGTWYGGEMKKGIFSMMNYWLPLDGVMSMHCSANKGKDGDTALFFGLSGTGKTTLSADPARYLIGDDEHGWDDDGIFNFEGGCYAKTVNLSRENEPEIYDAIKRDALLENVIIKKNGEPDYADVSRTENTRVSYPIYHIDNYEPSGMGDHPKSIVFLTCDAFGVLPPVSRLSPGQAMYHFLSGYTAKVAGTERGVTEPTPNFSAGFGAAFLTLHPTVYADLLQEKLDKHGTQCFLINTGWTGGGYGVGKRMSIKATRACVDAVLDGSINKTKFTKEPVFGFEVPQELPNVPSKVLNPREAWSDKASYDATRTKLGDMFKNNFTKFVKPGMTDYTAYGPK
B2: aspC A106G/A218G/F210I/I29V/I33V/I68L/I71L/N30D/N64T/S135A/T100S/V136I/V375I (Escherichia coli, UniProt P00509); chain MFENITAAPADPILGLADLFRADERPGKVDLGVGVYKDETGKTPVLTSVKKAEQYLLENETTKTYLGLDGLPEFGRCTQELLFGKGSALINDKRARTAQSPGGTGGLRVAADFLAKNTSVKRVWVSNPSWPNHKAIFNSAGLEVREYAYYDAENHTLDFDALINSLNEAQAGDVVLFHGCCHNPTGIDPTLEQWQTLAQLSVEKGWLPLIDFAYQGFGRGLEEDAEGLRAFAAMHKELIVASSYSKNFGLYNERVGACTLVAADSETVDRAFSQMKAAIRANYSNPPAHGASVVATILSNDALRAIWEQELTDMRQRIQRMRQLFVNTLQEKGANRDFSFIIKQNGMFSFSGLTKEQVLRLREEFGVYAVASGRINVAGMTPDNMAPLCEAIVAVL
B3: enzyme I20A (Nitrosopumilus maritimus, UniProt A9A5X4); chain MDSQKFDSIIFDCDGVLVDATQSYDKTIDKTCRYVLKEFAKIDSITIDHKIIDGFKSSGGFNDEVDLVYAAILSLYTANKLNKKPSEFIYDVISNTDKTGIRSVQSYLESIYDVSEFLSKLGSLGDRHNNPVYSIFDQFFFGPELYGKLFDKQSKFSEEGMISNDKVILSVSLLETLQKEFGKKIAVVTGRGIESIRYSLKDMMDYFDTKNSAFLEDEPRELAKPNPATLIRAIQSMESKNCLYVGDSMEDYMMAKDAAQAGHSTTFCAIVGTSTNPEDRRKLFADSGVEMILESINDIPKVLNLV
B4: enzyme (Bacillus subtilis, UniProt O31986); chain MKLSDIYLELKKGYADSLLYSDLSLLVNIMEYEKDIDVMSIQSLVAGYEKSDTPTITCGIIVYNESKRIKKCLNSVKDDFNEIIVLDSYSTDDTVDIIKCDFPDVEIKYEKWKNDFSYARNKIIEYATSEWIYFIDADNLYSKENKGKIAKVARVLEFFSIDCVVSPYIEEYTGHLYSDTRRMFRLNGKVKFHGKVHEEPMNYNHSLPFNFIVNLKVYHNGYNPSENNIKSKTRRNINLTEEMLRLEPENPKWLFFFGRELHLLDKDEEAIDYLKKSINNYKKFNDQRHFIDALVLLCTLLLQRNNYVDLTLYLDILETEYPRCVDVDYFRSAILLVDMQNKLTSLSNMIDEALTDERYSAINTTKDHFKRILISLNIQLENWERVKEISGEIKNDNMKKEIKQYLANSLHNIEHVLKGIEV
B5: PYCR2 R251C (Homo sapiens, UniProt Q96C36); chain MSVGFIGAGQLAYALARGFTAAGILSAHKIIASSPEMNLPTVSALRKMGVNLTRSNKETVKHSDVLFLAVKPHIIPFILDEIGADVQARHIVVSCAAGVTISSVEKKLMAFQPAPKVIRCMTNTPVVVQEGATVYATGTHALVEDGQLLEQLMSSVGFCTEVEEDLIDAVTGLSGSGPAYAFMALDALADGGVKMGLPRRLAIQLGAQALLGAAKMLLDSEQHPCQLKDNVCSPGGATIHALHFLESGGFCSLLINAVEASCIRTRELQSMADQEKISPAALKKTLLDRVKLESPTVSTLTPSSPGKLLTRSLALGGKKD
B6: enzyme (Kluyveromyces lactis, UniProt Q6CSZ6); chain MSSLDINEQRALIKSAHRYISEKLEDHFSSEFLPKALVICGSGLSGISTKIADEPKPLILSYSTIPGFKVSTVPGHSGELIFGYMNGAPVVLMNGRLHSYEGHSLAETVHPIRALHLLGSINVLIVTNAAGGINASFKAGDLMCVYDHINFPGLCGFHPLRGANFDEFGPRFLATSDAYDLELRKLLFSKKKELNIERKIHEGTYSYVHGPTFESRAESRFLRLAGTDAVGMSTVPEVVTARHCGWRVLALSLITNECVVDPPASAHDENPVPIQEGKATHEEVLENSAKASKDVQELIFSVVAEI
B7: enzyme C458A (Methanosarcina mazei, UniProt Q8PVB1); chain MSEQRSVPLREHLLALKPCRHGGLIQETSETYGIPENEILDFSANFNPLGSPFDYPENGLNFEDIIKKSCGKLLEYPDNRYVEFREAAARFVGLGVTPQSIVPGNGSTEIVRLVVESVIEKGDKVLLPWPTFGEYEMQCRITGAEPVCPSQEEVNTLPDEVLEEAKILFICNPNNPTGKLRTREELKVLAERCREHKTLLYVDEAFIELSDPSQSVADLPAENNYVFVMRSLTKDFAIPGIRMGFGIAPPAMADILNTARLSWNLGAIANNTGIALLNIEGGIDSPYLKKAREMILKEGETLKAKIDRIRGFEAGEVNVNFILVDVSKFMLNSSELTARLAARGVLVRDCVSFHGLGKNYIRVAVRTEKENDRLIAAIGDVITEWGREQAKNELQHVIEKASEEGIGGRKTCEYYPCHFEGQNCTFCFCPFYPCENEKTGGKWIQSSRGGRVWSCVDAHLVHKKEIAQKILDCLMHEGDTDELVKVAWKEVMEPIL
B8: enzyme (Lacticaseibacillus rhamnosus, UniProt A0A7S7JIA0); chain MSEPLPRIKRYEDLGLGLFIHWGLYSQLAVGEWTEFIHHRSRSEYEKLIATFTANQFDAEAIAHAAKMMGAKYIVLTTKHHEGFFLYDTKGLSSFDVMHSPANRDLIAEFVAACRKEGLLPFFYVATYDWHSPLYEENFPAYLDYLKASVEVLCRHYGPVGGFWFDGNWNKKEADWQLPALYGMIRKYQPDAIIVNNTGLKNRGKVSDPEIDVVTYERRTPDEIYHGAPNAKYVAGEISMTLNQHWGIATNDLNYKSPAEVIETVAHARHIGANILVNIGLTGQGAIPASAKTYMALLGRWTTMAAPALYRGRPTAIVSGQGARDFVLHADAHDYLCVFDLKVVGNDNVVLGGEGVNPRSFVGIDRPIESVYWLDNEEYLSFTQDLHKRVLTVDATGYPYGSDWVVRIAQIDYKSENRTVKSD
Sequence of UniProt P11446 (whole entry, looked up): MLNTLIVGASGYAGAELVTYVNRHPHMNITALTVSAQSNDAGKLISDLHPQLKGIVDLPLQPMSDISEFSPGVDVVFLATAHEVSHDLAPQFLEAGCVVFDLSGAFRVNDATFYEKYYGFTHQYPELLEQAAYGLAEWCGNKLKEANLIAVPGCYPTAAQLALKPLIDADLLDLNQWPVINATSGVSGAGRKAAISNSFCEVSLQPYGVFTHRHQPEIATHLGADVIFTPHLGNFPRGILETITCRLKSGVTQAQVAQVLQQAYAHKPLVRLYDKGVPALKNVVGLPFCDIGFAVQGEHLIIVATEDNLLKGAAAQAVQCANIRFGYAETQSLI
Sequence of UniProt P0AGF6 (whole entry, looked up): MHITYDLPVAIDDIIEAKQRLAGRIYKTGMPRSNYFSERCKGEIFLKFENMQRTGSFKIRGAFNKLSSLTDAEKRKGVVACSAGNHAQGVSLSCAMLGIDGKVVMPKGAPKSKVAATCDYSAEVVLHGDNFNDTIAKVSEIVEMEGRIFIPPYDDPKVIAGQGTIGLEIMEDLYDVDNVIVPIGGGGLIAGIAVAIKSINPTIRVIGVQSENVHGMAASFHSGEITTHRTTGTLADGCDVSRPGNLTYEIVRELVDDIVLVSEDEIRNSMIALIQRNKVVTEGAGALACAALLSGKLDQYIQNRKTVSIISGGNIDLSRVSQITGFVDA

Molecule = B1 (enzyme); target or system = C=C(OP(=O)(O)O)C(=O)O; test = steady-state kinetics; conditions = pH 6.5, 25 °C, added: 2 mM ADP; endpoint = Km; value = 700 µM
Molecule = B2; target or system = N[C@@H](Cc1ccc(O)cc1)C(=O)O; test = steady-state kinetics; conditions = pH 7.5, 25 °C, added: PLP 20 µM; endpoint = Km; value = 8000 µM
Molecule = GSGAGSETKM; target or system = human MAGI1-2/6 PDZ construct (MBP fusion); test = automated holdup; system = peptide, purified PDZ protein; conditions = concentration not given, unit not given; scale = relative to: biotin control resin, higher = stronger binding; endpoint = binding intensity; value = -0.0583
Molecule = B3 (enzyme I20A); target or system = N[C@H](COP(=O)(O)O)Cc1c[nH]cn1; test = steady-state kinetics; conditions = pH 7.8, 25 °C; endpoint = Km; value = 58 µM
Molecule = ICLTSTVQLIM; target or system = HLA class I histocompatibility antigen, A alpha chain, allele A*01:01 (Homo sapiens, UniProt P04439); test = conformational ELISA; system = peptide; conditions = concentration not given; scale = relative to: positive control peptide, direction not given; endpoint = binding score; value = 5.5%
Molecule = B4 (enzyme); target or system = O=c1ccn([C@@H]2O[C@H](COP(=O)(O)OP(=O)(O)O[C@H]3O[C@H](CO)[C@H](O)[C@H](O)[C@H]3O)[C@@H](O)[C@H]2O)c(=O)[nH]1; test = steady-state kinetics; conditions = pH 7.5, added: SunA; endpoint = Km; value = 2100 µM
Molecule = B5 (PYCR2 R251C); target or system = NC(=O)C1=CN([C@@H]2O[C@H](COP(=O)(O)OP(=O)(O)OC[C@H]3O[C@@H](n4cnc5c(N)ncnc54)[C@H](OP(=O)(O)O)[C@@H]3O)[C@@H](O)[C@H]2O)C=CC1; test = steady-state kinetics; conditions = pH 7.5, 37 °C, apparent, cofactor varied, added: DL-P5C 5000 µM; endpoint = Km; value = 119 µM
Molecule = QLIMQLMPF; target or system = HLA class I histocompatibility antigen, A alpha chain, allele A*24:02 (Homo sapiens, UniProt P04439); test = complex stability, off-rate; system = peptide; conditions = 37 °C; endpoint = half-life of peptide-HLA complex; value = 42 min
Molecule = SVWLRKETRV; target or system = human MAGI1-2/6 PDZ construct (MBP fusion); test = automated holdup; system = peptide, purified PDZ protein; conditions = concentration not given, unit not given; scale = relative to: biotin control resin, higher = stronger binding; endpoint = binding intensity; value = 0.878
Molecule = B6 (enzyme); target or system = Nc1nc2c(ncn2[C@H]2C[C@H](O)[C@@H](CO)O2)c(=O)[nH]1; test = steady-state kinetics; endpoint = Km; value = 59 µM
Molecule = enzyme (Escherichia coli, UniProt P0AGF6); target or system = C[C@@H](O)[C@H](N)C(=O)O; test = steady-state kinetics; conditions = pH 7.5, 23 °C, apparent, not purified, added: PLP 0.1 mM, L-Thr; endpoint = Km; value = 97500 µM
Molecule = B7 (enzyme C458A); target or system = Nc1ncnc2c1ncn2[C@@H]1O[C@H](COP(=O)(O)OP(=O)(O)OP(=O)(O)O)[C@@H](O)[C@H]1O; test = steady-state kinetics; conditions = pH 8.5, 25 °C, apparent, anoxic, added: L-Thr 10 mM; endpoint = Km; value = 98 µM
Molecule = enzyme (Pseudomonas poae, UniProt A0A2S9EJ63); target or system = COc1cc(CO)ccc1O; test = steady-state kinetics; conditions = pH 8, 30 °C; endpoint = Km; value = 1590 µM
Molecule = argC (Escherichia coli, UniProt P11446); target or system = N[C@@H](CCC=O)C(=O)O; test = steady-state kinetics; conditions = pH 7.6, apparent, added: 1 mM NADP+; endpoint = Km; value = 110 µM
Molecule = HNL E79H/K236M/T11G (Hevea brasiliensis); target or system = CC(=O)Oc1ccc([N+](=O)[O-])cc1; test = steady-state kinetics; conditions = pH 7.2, 22 °C; endpoint = Km; value = 710 µM
Molecule = B8 (enzyme); target or system = C[C@@H]1O[C@@H](Oc2ccc([N+](=O)[O-])cc2)[C@@H](O)[C@H](O)[C@@H]1O; test = steady-state kinetics; conditions = pH 5, 40 °C; endpoint = Km; value = 1320 µM

Repeated from above:
Molecule = argC (Escherichia coli, UniProt P11446); target or system = N[C@@H](CCC=O)C(=O)O; test = steady-state kinetics; conditions = pH 7.6, apparent, added: 1 mM NADP+; endpoint = Km; value = 110 µM
